Measured values gathered from unrelated publications.
Numbered parts are unrelated; each lists some results of a single study.

Block 1
Target: Fragile X messenger ribonucleoprotein 1, C-terminal low-complexity region (Fmr1, Mus musculus, UniProt P35922)
Technique: RNA Bind-n-Seq
Molecule type: RNA
Matrix: in vitro
Tested at: 200 nM
Setting: whole 134-nt RNA, ends assumed
With: 150 mM KCl
Relative to: input library
Direction: higher = stronger binding
`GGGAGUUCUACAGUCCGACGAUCUUCUCUCAUUUCUUCUGAAAUACAGGGCAAAUUGGAUCAAGGCAGUUCAGAUGUGUAGCAAACCCAGAGAAUUUGCAUUGGCUUUAGCCAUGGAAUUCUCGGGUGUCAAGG` has a log2 enrichment of 0.94.
With `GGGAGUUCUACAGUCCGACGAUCUGGGAGGUGGAUUUUGUUUAUUUUUUUAGCUCAUUUCCAGGGGUGGGAAUUUUUUUUUAAUAUGUGUCAUGAAUAAAGUAGUUUUUGAAAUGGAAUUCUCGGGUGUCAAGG` the log2 enrichment was 0.307.
With `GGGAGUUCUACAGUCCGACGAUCUAACUUUAGAGGAGGAUCUGAUGGAUAUGGCAGUGGACGUGGUUUUGGGGAUGGCUAUAAUGGGUAUGGAGGAGGACCUGGAGGUGGCAAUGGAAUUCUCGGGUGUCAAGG` the log2 enrichment was 0.211.
With `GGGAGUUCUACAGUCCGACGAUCUUCCUCAAGUCCUGUGCUACACAUCGUAUGUACCGAAUCGGUGGUGGUGGGAAAGUAUUAUGUUACGCCGUUCGGAUCUGCACUUCCAGCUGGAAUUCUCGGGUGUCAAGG` the log2 enrichment was -0.136.
`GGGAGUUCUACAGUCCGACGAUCGCAGGCAGUAAAAACAAAUGGAAAUGCUUCGGAUAGUGGCAGGGGUGGGGGUUGCUAAGGAAAGGGUGGGAUGGGAGUGGGUAAAGAGUUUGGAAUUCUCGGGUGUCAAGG` has a log2 enrichment of 0.62.
The log2 enrichment of `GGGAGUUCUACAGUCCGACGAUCCCUGUGCUACACAUCGUAUGUACCGAAUCGGGGCCCCCCGGGCCCCCCGGGGCCCCCCGGGAAAGUAUUAUGUUACGCCGUUCGGAUCUGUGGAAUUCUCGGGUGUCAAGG` is reported as -1.02.
`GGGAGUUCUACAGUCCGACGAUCAAGUCCUGUGCUACACAUCGUAUGUACCGAAUCGGGUUUUUUUGGGAGGGUUUGGGAAAGUAUUAUGUUACGCCGUUCGGAUCUGCACUUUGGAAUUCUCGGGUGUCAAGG` gave a log2 enrichment of 0.497.
The log2 enrichment of `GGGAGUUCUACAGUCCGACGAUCGCAGGAAGUAAAAACAAAUGGAAAUGCUUCGGAUAGUGGCAGGGGUGGGGGUUGCUAAGGAAAUGGUGGGAUGGGAGUGGGUAAAGAGUUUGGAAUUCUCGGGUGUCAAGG` is reported as 0.0603.
The log2 enrichment of `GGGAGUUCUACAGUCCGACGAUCUCAAGUCCUGUGCUACACAUCGUAUGUACCGAAUCGGGAAAGGGUUUGGGAGGGAAAGUAUUAUGUUACGCCGUUCGGAUCUGCACUUCCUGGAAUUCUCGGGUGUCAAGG` is reported as 1.23.
The log2 enrichment of `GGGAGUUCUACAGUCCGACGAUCUGUGCUACACAUCGUAUGUACCGAAUCGGGGCCCCCCCGGGGCCCCCCCGGGGCCCCCCCGGGAAAGUAUUAUGUUACGCCGUUCGGAUCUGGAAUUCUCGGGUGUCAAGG` is reported as -1.67.
The log2 enrichment of `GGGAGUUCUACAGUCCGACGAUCGUCCUGUGCUACACAUCGUAUGUACCGAAUCGGGUUUUUGGGAAAAAAAGGGUUUGGGAAAGUAUUAUGUUACGCCGUUCGGAUCUGCACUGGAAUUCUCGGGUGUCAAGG` is reported as -0.306.
`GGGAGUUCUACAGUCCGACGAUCACCAUGCAGGUGGGCAUCUUUGGGAAGUGGGGCAAGGGGGGGAUAGGGAGGGGGGUAACACUUUGGGAACAGGUGGUCCCAGGCCGUUUCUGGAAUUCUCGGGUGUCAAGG` has a log2 enrichment of 0.735.

Block 2
Target: Sal-like protein 4, full length isoform B (SALL4, Homo sapiens, UniProt Q9UJQ4-2, residues 1-616)
Technique: universal PBM
Molecule type: double-stranded DNA, one strand shown
Matrix: in vitro
Tested at: not given
Setting: 8-mer, flanks averaged, mean of replicates
Direction: higher = stronger binding
The E-score of `TGTAGAAA` is reported as 0.154.
With `GGACCAAA` the E-score was -0.152.
`CCCGCCGC` has an E-score of -0.397.
The E-score of `CGAAGCCA` is reported as -0.0989.
`AGTAAAAC` has an E-score of 0.244.
With `GGTGGTCA` the E-score was -0.187.
`ACTGTCCG` gave an E-score of -0.133.
With `AGCCGTTG` the E-score was -0.0306.
With `ATCGACAT` the E-score was 0.148.
`GCATAAGA` has an E-score of 0.101.
For `CGGTAGTA`, the E-score was 0.105.
`ACAGCCCG` has an E-score of -0.284.
`ATGAAACG` gave an E-score of 0.173.

Block 3
Target: RING finger protein unkempt homolog, zinc fingers 1-6, SBP tag (UNK, Homo sapiens, UniProt Q9C0B0, residues 30-357)
Sequence of UniProt Q9C0B0 (30-357, looked up): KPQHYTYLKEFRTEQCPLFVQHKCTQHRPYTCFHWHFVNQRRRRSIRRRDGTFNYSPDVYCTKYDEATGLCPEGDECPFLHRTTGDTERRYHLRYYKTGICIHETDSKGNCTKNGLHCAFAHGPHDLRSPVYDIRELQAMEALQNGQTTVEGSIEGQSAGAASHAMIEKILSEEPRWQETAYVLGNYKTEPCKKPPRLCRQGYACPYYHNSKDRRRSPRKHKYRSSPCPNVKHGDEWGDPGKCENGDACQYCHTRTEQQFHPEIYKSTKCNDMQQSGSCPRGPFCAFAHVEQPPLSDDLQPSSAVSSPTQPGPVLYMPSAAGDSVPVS
Technique: RNA Bind-n-Seq
Molecule type: RNA
Matrix: in vitro
Tested at: 100 nM
Setting: RNA with constant flanks, vertebrate orthologous sites, ends assumed
Relative to: input RNA pool
Direction: higher = stronger binding
`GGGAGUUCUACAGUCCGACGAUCAAAUUCCCCCAUUGUCACUGAGAACCACCAAAUCUGACUUUUACAUUUGGUCUCAGAAUUUAGGUUCCUGCCCUGUUGGUUUUUUUUUUUUUUUUUUAAAAAGUUUUCAAAAGUUCUUAACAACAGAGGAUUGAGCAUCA` gave a bound/input enrichment of 1.18 ratio.
`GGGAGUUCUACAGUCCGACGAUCUGGGUUACUCCUAUUAUUAUCAAGUAGCUGGAAUUGUGAAGGUCGGAGUAGUUAGAUCUUUAGCUUUUACUCCUUAUUUUUUUUUUGUAUUACUAUCCAUGUGUAUAAAUUAUUGAUCAUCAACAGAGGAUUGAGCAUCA` has a bound/input enrichment of 2.63 ratio.
`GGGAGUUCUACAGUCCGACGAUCGAGAGUCCCCAUUGUCACUGAGAACCACCAAAUCUGACUUUUACAUUUGGUCUCAGAAUUUAGGUUCCUGCCCUGUUUUUUUUUUUUUUUUUUUUUUAAACAGUUUUCAAAAGUUCUUAACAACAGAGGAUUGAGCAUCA` gave a bound/input enrichment of 1.83 ratio.
`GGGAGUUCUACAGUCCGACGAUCGUCAUCUGACUGGAUGAAGACUGUUCCAAGUUACAACCAAACAAAUAGCUCCAUGGACUUUAGAAAUUAUAUGAUGAGAGAUGAGACUCUGGAACCACUGCCCAAAAACUGGGAAAUGGCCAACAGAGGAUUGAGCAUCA` gave a bound/input enrichment of 1.07 ratio.
The bound/input enrichment of `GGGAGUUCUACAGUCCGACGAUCCUGGGACCAGCUCUCCUAAUAGGAAUAGUAGUAAGAAAAGUAAACAAAAUGAUAUUUGUAUUGAUAAAACAGAAAUUAAAUCAUGUAAAGUAAAUGCUACCAAUGUUCCAGGCCCUAAAGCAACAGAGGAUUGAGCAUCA` is reported as 0.397 ratio.
`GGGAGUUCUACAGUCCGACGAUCCAGUAGAAUUACACUAAUACUGAAGUUAAAAGAGUAUCAAAGGUGAUGAUAAAGUGUGUGUUGGUAGUUACUAAAAGAACCUUAGCUGUUAUUGCCUUGUAUUUCUAUCCCUUGUUUCAGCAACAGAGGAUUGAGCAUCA` gave a bound/input enrichment of 0.447 ratio.

Block 4
Target: Histone acetyltransferase KAT6A, winged helix 2, GST fusion (KAT6A, Homo sapiens, UniProt Q92794, residues 85-181)
Technique: protein binding microarray
Molecule type: double-stranded DNA, one strand shown
Matrix: in vitro
Tested at: not given
Setting: 8-mer, flanks averaged, mean of 2 arrays, mostly near background
Relative to: not given
Direction: higher = stronger binding
Residues (chain): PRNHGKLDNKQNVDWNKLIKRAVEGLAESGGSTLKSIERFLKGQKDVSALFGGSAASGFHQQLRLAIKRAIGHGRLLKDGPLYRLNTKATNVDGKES
For `AATTAAGG`, the E-score was -0.122.
The E-score of `GGAGTGCA` is reported as 0.107.
The E-score of `ACTTTGAC` is reported as 0.0271.
`CCAGATTC` gave an E-score of 0.00795.
For `ACTGTCAA`, the E-score was -0.21.
For `AGGATCCC`, the E-score was -0.108.
For `CGGGTGGA`, the E-score was 0.12.
`GGATATAA` has an E-score of 0.0689.
`ATTCGTTG` has an E-score of 0.065.
`CTTCACCA` has an E-score of -0.0665.
For `AACGGCAG`, the E-score was 0.14.
For `ACCATGAC`, the E-score was 0.00824.
`ACAAGAAC` gave an E-score of 0.126.
`CAGACGGC` has an E-score of 0.0681.
For `CGTCGTAA`, the E-score was -0.239.
For `AAGTGAAA`, the E-score was 0.0493.
With `CCTCATCG` the E-score was -0.0446.
`TCAAGACA` gave an E-score of -0.0832.
For `CCGTTTGA`, the E-score was -0.0379.
`AGAGATAT` has an E-score of -0.0283.
`CCGTAATC` gave an E-score of -0.0529.
With `CTTAAGTA` the E-score was -0.17.
For `AATCCAGC`, the E-score was 0.0548.
`CCCGCATC` gave an E-score of 0.126.
With `ACAGAATA` the E-score was -0.0987.

Block 5
Target: Interferon regulatory factor 3, full length, phosphomimetic (IRF3, Homo sapiens, UniProt Q14653, residues 1-427, S386D/S396D/S398D/S402D/T404D/S405D)
Technique: protein-binding microarray
Molecule type: double-stranded DNA, one strand shown
Matrix: in vitro
Tested at: 2540 nM top
Setting: 60-bp whole probe
With: salmon DNA 0.4 mg/ml
Relative to: random background probes
Direction: higher = stronger binding
Constant ends, left off below: GCCTAGCAC … GTCTTGATTCGCTTGACGCTGCTG
Construct (chain): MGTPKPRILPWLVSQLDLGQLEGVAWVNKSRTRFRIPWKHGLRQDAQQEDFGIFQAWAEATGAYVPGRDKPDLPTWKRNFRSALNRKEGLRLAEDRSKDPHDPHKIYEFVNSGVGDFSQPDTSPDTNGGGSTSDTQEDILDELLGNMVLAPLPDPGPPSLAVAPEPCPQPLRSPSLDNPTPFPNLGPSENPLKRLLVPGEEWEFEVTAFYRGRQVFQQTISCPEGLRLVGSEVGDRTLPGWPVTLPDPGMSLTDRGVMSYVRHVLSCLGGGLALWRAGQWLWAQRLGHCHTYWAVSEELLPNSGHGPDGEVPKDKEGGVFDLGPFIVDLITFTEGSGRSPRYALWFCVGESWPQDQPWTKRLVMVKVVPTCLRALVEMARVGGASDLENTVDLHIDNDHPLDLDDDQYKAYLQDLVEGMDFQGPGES
`GACGATTTCGGGTAGCGAGACGTGCTA`: “fitted relative affinity” 1.32 z-score.
For `ATATGTATATATGTGTATATGTGCTAG`, “fitted relative affinity” read 0.561 z-score.
`GACGACTTCGGGTATCGAGACGTGCTA` — result for “fitted relative affinity”: -0.265 z-score.
For `TCAGGTCACTCTCTGGGACTGTGCTAG`, “fitted relative affinity” read 0.158 z-score.
For `TTAGGACTGCTTATTCTTTAGTGCTAG`, “fitted relative affinity” read -0.191 z-score.
For `TTAGATTTCGCGTATCGATTAGTGCTA`, “fitted relative affinity” read 0.696 z-score.
`GACGAACTGGTGTATCGAGACGTGCTA` — result for “fitted relative affinity”: -0.0313 z-score.
`TTAGGTTTTCTTTTCCTTTAGTGCTAG`: “fitted relative affinity” 5.39 z-score.
For `TTAGGTTTCGGACTGGATTAGTGCTAG`, “fitted relative affinity” read 4.38 z-score.
`GACGGTCTCGGTCTCGGGAGGTGCTAG` — result for “fitted relative affinity”: 1.44 z-score.
For `GGGCCACAAAGCAATAAGAAGTGCTAG`, “fitted relative affinity” read -0.618 z-score.
`GACGGTCTCCTTCTCCAGACGTGCTAG` — result for “fitted relative affinity”: 4.3 z-score.
Under “fitted relative affinity”, `TGAGGTATCGACTTTCGGTTAGTGCTA` is recorded as 1.8 z-score.
`TCAGTTTTCTCTATTGCACTGTGCTAG`: “fitted relative affinity” 1.99 z-score.
`GACGGTTTCGGACTGGGGGCGTGCTAG` — result for “fitted relative affinity”: 4.68 z-score.
`TCATTTATCCCTGACAGACTGTGCTAG` — result for “fitted relative affinity”: 1.7 z-score.
For `TCAAGTTTTGAGCTCTGACTGTGCTAG`, “fitted relative affinity” read -0.233 z-score.
`TCACCTCTTTTTTTGGTACTGTGCTAG` — result for “fitted relative affinity”: 0.905 z-score.
Under “fitted relative affinity”, `TTAGAACTGTGGACTGGATTAGTGCTA` is recorded as -0.628 z-score.
For `TTAGCTTTCGGGTTTCGGTTAGTGCTA`, “fitted relative affinity” read 4.21 z-score.
For `GACGGTATTGGGTATCGGGACGTGCTA`, “fitted relative affinity” read 0.258 z-score.

Some of these lines once more (block 5):
`GACGATTTCGGGTAGCGAGACGTGCTA`: “fitted relative affinity” 1.32 z-score.
For `ATATGTATATATGTGTATATGTGCTAG`, “fitted relative affinity” read 0.561 z-score.
`GACGACTTCGGGTATCGAGACGTGCTA` — result for “fitted relative affinity”: -0.265 z-score.
For `TCAGGTCACTCTCTGGGACTGTGCTAG`, “fitted relative affinity” read 0.158 z-score.
For `TTAGGACTGCTTATTCTTTAGTGCTAG`, “fitted relative affinity” read -0.191 z-score.
For `TTAGATTTCGCGTATCGATTAGTGCTA`, “fitted relative affinity” read 0.696 z-score.
`GACGAACTGGTGTATCGAGACGTGCTA` — result for “fitted relative affinity”: -0.0313 z-score.
`TTAGGTTTTCTTTTCCTTTAGTGCTAG`: “fitted relative affinity” 5.39 z-score.
For `TTAGGTTTCGGACTGGATTAGTGCTAG`, “fitted relative affinity” read 4.38 z-score.
`GACGGTCTCGGTCTCGGGAGGTGCTAG` — result for “fitted relative affinity”: 1.44 z-score.
